Experimental data of several laboratories.
Every numbered part comes from another study and shows a few of its results, in no order. Changes are numbered by the printed parent chain.

Block 1
Target: CCNB1, cyclin fold, Cln2 fusion (human)
Technique: yeast growth competition, sequencing
Matrix: yeast
Notes: weak parent motif
Reference: not given
Reading: higher = stronger binding
Starting sequence: CDKN1A docking peptide (human); SKACRRLFGPVDS
| Substitution | normalised enrichment score |
| --- | --- |
| A3P | 0.452 |
| K2L | 0.194 |
| G9E | 0.133 |
| V11C | 0.432 |
| A3E | 0.296 |
| K2P | 0.244 |
| A3S | -0.219 |
| R5N | 0.229 |
| G9F | 0.703 |
| L7V | 0.553 |
| C4I | 0.0878 |
| C4A | 0.0701 |
| P10Y | 0.533 |
| R6V | 0.216 |
| R6K | 0.429 |
| C4R | 0.336 |
| G9P | 0.444 |

Block 2
Target: Histone acetyltransferase KAT6A, winged helix 1, GST fusion (KAT6A, Homo sapiens, UniProt Q92794, residues 1-85)
Technique: protein binding microarray
Molecule type: double-stranded DNA, one strand shown
Matrix: in vitro
Concentration: not given
Notes: 8-mer, flanks averaged, mean of 2 arrays, mostly near background
Reference: not given
Reading: higher = stronger binding
Construct (chain): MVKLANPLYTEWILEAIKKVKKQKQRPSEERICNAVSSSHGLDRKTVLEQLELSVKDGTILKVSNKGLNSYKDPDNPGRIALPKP
| Strand | E-score |
| --- | --- |
| ATAACACC | -0.0534 |
| ATCTAAGA | -0.249 |
| GATCGCTA | 0.0366 |
| CCTCACAA | -0.1 |
| ATCGGCCA | 0.193 |
| ATGAAGCC | 0.141 |
| CGTAGCCC | 0.152 |
| GCTACCCA | -0.0422 |
| AATAAGAG | -0.112 |
| GTGTCATA | -0.231 |
| ACTCAACG | 0.0331 |
| AACCCCGA | 0.196 |
| AGCAAGAT | -0.205 |
| ACCCAGAC | -0.0406 |
| ACCTCCCT | -0.236 |
| AGACAAGC | -0.0255 |
| CGCATGAG | 0.138 |
| AGCCGTAC | 0.366 |
| AATCACGT | -0.0209 |
| GGTCAAAA | -0.191 |

Block 3
Target: Fragile X messenger ribonucleoprotein 1, C-terminal low-complexity region (Fmr1, Mus musculus, UniProt P35922)
Technique: RNA Bind-n-Seq
Molecule type: RNA
Matrix: in vitro
Concentration: 200 nM
Notes: whole 134-nt RNA, ends assumed
With: 150 mM KCl
Reference: input library
Reading: higher = stronger binding
All sequences stand within: GGGAGUUCUACAGUCCGACGAUC … UGGAAUUCUCGGGUGUCAAGG
| Strand | log2 enrichment |
| --- | --- |
| CCUGUGCUACACAUCGUAUGUACCGAAUCGGGUUUUUGGGUUUUUUUGGGUUUUUUUGGGAAAGUAUUAUGUUACGCCGUUCGGAUCUGC | -0.448 |
| UCAAGUCCUGUGCUACACAUCGUAUGUACCGAAUCGGAAAAAGGAAAAAGGUGGAAAGUAUUAUGUUACGCCGUUCGGAUCUGCACUUCC | -0.521 |
| ACCAUGCAGGUGGGCAUCUUUGGGAAGUGGGGCAAGGGGGGGAUAGGGAGGGGGGUAACACUUUGGGAACAGGGGGUCCCAGGUCGUUUC | 0.399 |
| AAGUCCUGUGCUACACAUCGUAUGUACCGAAUCGGGGAAAGGGGAGGGGAAAGGGGAAAGUAUUAUGUUACGCCGUUCGGAUCUGCACUU | 0.457 |
| CUCAAGUCCUGUGCUACACAUCGUAUGUACCGAAUCGGAGGAGGUUUUUUUGGAAAGUAUUAUGUUACGCCGUUCGGAUCUGCACUUCCA | -0.308 |
| AAGUCCUGUGCUACACAUCGUAUGUACCGAAUCGGGGCCCCGGCCCCGGGGCCCCGGAAAGUAUUAUGUUACGCCGUUCGGAUCUGCACU | -0.979 |
| UUAGUGAAUGUAUAGAAGGAGUAAAGGUAGAGCACAAUCCUGACCUGUCAGUUACUGUCAGCACCAAAAAAUCCCACCAGACAUGGACCU | -0.0685 |
| UAACUUUAGAGGAGGAUCUGAUGGAUAAGGCAGUGGACGUGGAUUUGGGGAUGGCUAUAAUGGGUAUGGAGGAGGACCUGGAGGUGGCAA | 0.125 |
| CACAGACAACACGCACCCACACAGACACAGAGGGAAGGGGUUGGGAUGAGGACAGGGUGCACAGCAGGGCGGGGUAGGACCCCAGCCCCU | 0.98 |
| UCGGAUGGCUUCGCAUUUCCCCAAUACCCCAUUAAACCGUAUCAUCUGAAGAGGAUCCACAGAGCUGUCUUACAUGGUAAUCUAGAGAAA | -0.629 |
| CCUGUGCUACACAUCGUAUGUACCGAAUCGGUUUUUUUGGGUUUUUUUGGGUUUUUUUGGGAAAGUAUUAUGUUACGCCGUUCGGAUCUG | -0.837 |
| UGGCCCUGGUGGCAUGCGGGGUGGAAGAGGUGGCCUCAUGGAUCGUGGUGGUCCCGGUGGAAUGUUCAGAGGUGGCCGUGGUGGAGACAG | -0.079 |

Block 4
Target: Prothrombin, mature alpha-thrombin (F2, Homo sapiens, UniProt P00734)
Technique: aptamer microarray, sandwich
Molecule type: DNA with 2'F-ANA
Matrix: in vitro
Concentration: 200 nM
Notes: whole 15-mer aptamer, many near background
With: Cy3 exosite-II aptamer, 400 nM
Reading: higher = stronger binding
Strand: GGTTGGTGTGGTTGG
| Modification | mean fluorescence intensity |
| --- | --- |
| 2'F-ANA at 1 3 8 10 12 13 15 | 112 a.u. |
| 2'F-ANA at 3 5 6 12 14 | 60.9 a.u. |
| 2'F-ANA at 1 3 6 8 9 10 | 78.1 a.u. |
| 2'F-ANA at 1 2 5 8 10 11 13 | 46 a.u. |
| 2'F-ANA at 4 5 6 8 9 11 | 60.5 a.u. |
| 2'F-ANA at 4 7 9 10 12 15 | 117 a.u. |
| 2'F-ANA at 1 3 4 7 8 10 11 12 14 15 | 56.9 a.u. |
| 2'F-ANA at 5 6 8 9 11 13 14 | 48.7 a.u. |
| 2'F-ANA at 1 3 5 7 10 12 14 | 43.9 a.u. |
| 2'F-ANA at 2 7 8 9 10 12 15 | 195 a.u. |
| 2'F-ANA at 2 5 9 11 13 | 67 a.u. |
| 2'F-ANA at 1 5 6 10 12 13 15 | 48.9 a.u. |
| 2'F-ANA at 1 2 3 5 6 9 11 12 13 14 15 | 51.6 a.u. |
| 2'F-ANA at 4 6 7 10 12 14 | 59.8 a.u. |
| 2'F-ANA at 1 3 4 6 7 8 11 12 13 14 15 | 77.6 a.u. |
| 2'F-ANA at 2 4 6 7 8 9 12 13 14 15 | 98.5 a.u. |

Block 5
Target: ABI1, truncated, D143A, DHFR fusion (Arabidopsis thaliana)
Technique: DHFR PCA, deep sequencing
Matrix: yeast
Notes: methotrexate growth selection, single substitutions
With: (+)-ABA 0.032 µM
Reference: wild-type fitted maximum
Reading: higher = stronger binding
Starting sequence: PYL1, truncated, DHFR fusion (Arabidopsis thaliana); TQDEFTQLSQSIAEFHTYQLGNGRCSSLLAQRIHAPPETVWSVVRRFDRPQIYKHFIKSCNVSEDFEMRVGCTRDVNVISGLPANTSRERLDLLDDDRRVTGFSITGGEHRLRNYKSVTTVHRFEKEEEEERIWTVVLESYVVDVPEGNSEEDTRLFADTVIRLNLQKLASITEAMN
| Substitution | relative binding score [%] |
| --- | --- |
| Y141M | -2.86 |
| R49V | 2.26 |
| F124Q | 5.53 |
| T86C | 27 |
| F66D | -1.22 |
| Y115C | 6.9 |
| R111H | 8.53 |
| H55D | -0.747 |

Block 6
Target: Interferon regulatory factor 7, full length, phosphomimetic (IRF7, Homo sapiens, UniProt Q92985, residues 1-503, S471D/S472D/S475D/S476D/S477D/S483D/S484D/S487D)
Technique: protein-binding microarray
Molecule type: double-stranded DNA, one strand shown
Matrix: in vitro
Concentration: 2200 nM top
Notes: 60-bp whole probe
With: salmon DNA 0.4 mg/ml
Reference: random background probes
Reading: higher = stronger binding
All sequences stand within: GCCTAGCAC … GTCTTGATTCGCTTGACGCTGCTG
Target sequence (chain): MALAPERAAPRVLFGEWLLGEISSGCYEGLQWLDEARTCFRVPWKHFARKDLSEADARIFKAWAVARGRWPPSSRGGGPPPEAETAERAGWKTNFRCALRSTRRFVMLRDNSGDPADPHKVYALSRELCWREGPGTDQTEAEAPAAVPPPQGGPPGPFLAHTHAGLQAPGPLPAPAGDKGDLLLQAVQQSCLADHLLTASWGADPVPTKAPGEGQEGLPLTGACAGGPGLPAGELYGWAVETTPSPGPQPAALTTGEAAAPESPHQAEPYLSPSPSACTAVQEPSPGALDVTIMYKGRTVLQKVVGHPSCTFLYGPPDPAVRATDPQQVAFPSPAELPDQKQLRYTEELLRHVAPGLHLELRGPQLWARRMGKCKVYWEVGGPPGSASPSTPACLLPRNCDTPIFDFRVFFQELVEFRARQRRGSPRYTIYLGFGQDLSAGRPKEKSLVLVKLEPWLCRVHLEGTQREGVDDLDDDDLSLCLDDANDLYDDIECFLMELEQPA
| Strand | fitted relative affinity [z-score] |
| --- | --- |
| TCATGCCTATTTTTCCCACTGTGCTAG | 1.79 |
| TTAGCTTTCGGGACTGGGTTAGTGCTA | 3.44 |
| GACGGTTTTCTTATCCTGACGTGCTAG | 2.01 |
| TTAGGTTCCGGGTTTCGGTTAGTGCTA | 5.04 |
| TTAGGTTTCCTTTCCCCTTAGTGCTAG | 4.48 |
| TTAGAACTGGGGACTGGATTTGTGCTA | -0.17 |
| TTAAGACTGGACTTTCGGTTAGTGCTA | 5.15 |
| CATATTCTCTTCTTGCATCTGTGCTAG | 2.47 |
| TTTTTGTTGTTTTTTGGTTTGTGCTAG | 3.36 |
| CTGGAGAGACGGAGTCTCCAGTGCTAG | -0.56 |
| GACCGACTGGGGTTTCGGGACGTGCTA | 0.94 |
| AGGCCTCTGGGATCCCAGTCGGTGCTA | -0.6 |
| GACGAACTGAGTCTCGCGACGTGCTAG | -0.0511 |
| TTAGAACTGATTCTCGATTAGTGCTAG | -0.014 |
| GACGATATCAGTATCGAAACGTGCTAG | 0.593 |
| TCAGATGTGGGACTCACACTGTGCTAG | 0.125 |
| TCAGCTTTATGTGTAGGACTGTGCTAG | 0.433 |
| TCCTTTTAATTTTTAACGAGGTGCTAG | 1.03 |
| GACGTTCTCGGACTGGGGACGTGCTAG | -0.226 |
| TCATTTTATGCTTTCTTACTGTGCTAG | 2.8 |

Repeated from above (block 6):
| Strand | fitted relative affinity [z-score] |
| --- | --- |
| GACGATATCAGTATCGAAACGTGCTAG | 0.593 |
| GACCGACTGGGGTTTCGGGACGTGCTA | 0.94 |
| TTAGAACTGATTCTCGATTAGTGCTAG | -0.014 |
| AGGCCTCTGGGATCCCAGTCGGTGCTA | -0.6 |
| GACGGTTTTCTTATCCTGACGTGCTAG | 2.01 |
| TTAGCTTTCGGGACTGGGTTAGTGCTA | 3.44 |
| TCATGCCTATTTTTCCCACTGTGCTAG | 1.79 |
| TCAGCTTTATGTGTAGGACTGTGCTAG | 0.433 |
